{"data": "Measured values from different studies", "note": "Lines come from different studies, so protocols differ. “And” joins repeats or separate records; there may be more than shown. Numbers after ± are the reported error."}
{"SMILES": "c1cc(C2CCCCC2)ccc1-c1cnc(N2CCOCC2)nc1", "test": "liver microsome stability", "test system": "dog liver microsomes", "setting": "1 µM", "endpoint": "hepatic clearance", "value": "26 mL/min/kg"}
{"SMILES": "Cc1ccc(-n2cc(CSc3nc4ccccc4n3Cc3cn(-c4ccc(C)cc4)nn3)nn2)cc1", "tested on": "MDA-MB-231", "test": "MTT", "setting": "125 ppm", "endpoint": "cytotoxicity", "value": "90.7%"}
{"SMILES": "N#Cc1cccc(/C=C/C(=O)c2ccc(O)cc2)c1", "tested on": "U-87 MG", "test": "refers to: SIVA1", "setting": "concentration not given", "how to read": "baseline: untreated", "endpoint": "fold change", "value": 0.038}
{"SMILES": "CC(=O)N1CCC[C@H]1C(=O)N[C@@H](CCC(N)=O)C(=O)N[C@@H](C)C(=O)N[C@@H](CC(=O)O)C(=O)COC(=O)c1c(C)cccc1C", "tested on": "THP-1 cells, LPS-primed", "test": "pyroptosis, LDH release", "setting": "25 µM, LPS 1 µg/mL, 4 h, together with: nigericin 5 µM, 2 h", "endpoint": "cell lysis", "value": "55.8% and 63.8%"}
{"SMILES": "O=C(Nc1ccc(Sc2ccc3c(/C=C/c4ccccn4)n[nH]c3c2)cc1)Nc1ccc(F)c(F)c1", "tested on": "BaF3", "test": "cell growth or viability, CCK-8", "endpoint": "GI50", "value": "2.48 µM"}
{"SMILES": "O=S(=O)(Nc1ccc(OC(F)(F)F)cc1)N1CCCC(C2c3ccc(F)cc3CCc3cc(F)ccc32)C1 (centres unmarked)", "tested on": "D425", "test": "immunoblot, refers to: Bad", "setting": "concentration not given, 24 h", "endpoint": "phosphorylation level", "value": "decreased"}
{"SMILES": "CCC(=CCc1c(O)cc2c(c1O)C(=O)CC(c1ccc(O)cc1OC)O2)CC (centres unmarked)", "tested on": "HeLa", "test": "cell growth or viability, MTT", "setting": "1.563 µM, 48 h", "endpoint": "inhibition", "value": "13.2%"}
{"SMILES": "COC(=O)c1ccc(S(=O)(=O)NC23CCCC(C)(CCC4C2CC4(C)C)C3)cc1 (centres unmarked)", "tested on": "HT-29", "test": "cell growth or viability, CCK-8", "setting": "10 µM", "endpoint": "inhibition", "value": "< 50%"}
{"SMILES": "Cc1ccncc1.[Cl-].[Cl-].[Ru+2].c1cc(-c2ccc3cccnc3n2)nc(-c2ccc3cccnc3n2)c1.c1ccc2cc3nc4c5cccnc5c5ncccc5c4nc3cc2c1", "tested on": "SK-MEL-28", "setting": "light 633 nm", "how to read": "baseline: dark EC50 over light EC50", "endpoint": "phototherapeutic index", "value": 153}
{"SMILES": "CC(=O)N[C@H](C(=O)N[C@@H](CCC(=O)O)C(=O)N[C@@H](CO)C(=O)N[C@@H](CC(=O)O)C(=O)COC(=O)c1c(C)cccc1C)[C@@H](C)O", "tested on": "THP-1 cells, LPS-primed", "test": "pyroptosis, LDH release", "setting": "25 µM, LPS 1 µg/mL, 4 h, together with: nigericin 5 µM, 2 h", "endpoint": "cell lysis", "value": "89.8%"}
{"SMILES": "CCC(=CCc1c(O)cc2c(c1O)C(=O)CC(c1ccc(O)c(OC)c1)O2)CC (centres unmarked)", "tested on": "HeLa", "test": "cell growth or viability, MTT", "setting": "50 µM, 48 h", "endpoint": "inhibition", "value": "91.8%"}
{"SMILES": "Cn1ncc2cc(-c3cncc(Cl)c3N3CCC4(CCNC4=O)CC3)ccc21", "tested on": "LS174T", "test": "gene expression, microarray, refers to: DUSP6 mRNA", "setting": "concentration not given, 4 h", "how to read": "baseline: untreated cells", "endpoint": "log2 fold change", "value": -1.12}
{"SMILES": "O=C(N/N=C/c1cc[n+](Cc2ccccc2)c2ccccc12)c1cc(C(=O)N/N=C/c2cc[n+](Cc3ccccc3)c3ccccc23)ncn1", "tested on": "22CTA telomeric G4-DNA antiparallel", "test": "FRET melting", "setting": "1 µM, K10 buffer, DNA 0.2 µM, together with: ds26 10 µM", "endpoint": "ΔTm", "value": "13.7 ± 0.5 °C"}
{"SMILES": "O=C(NC1CCOCC1)c1ccc([C@H]2[C@@H](F)[C@@H](F)C[C@@H](F)[C@H]2F)cc1", "test": "liver microsome stability", "test system": "dog liver microsomes", "setting": "1 µM", "endpoint": "hepatic clearance", "value": "7.3 mL/min/kg"}
{"SMILES": "COC(=O)C1=C(C)Oc2cc(OC)ccc2C1C(C(C)=O)C(=O)OC (centres unmarked)", "tested on": "3T3-L1 mature adipocytes", "test": "lipolysis, Oil Red O staining", "setting": "IC20", "endpoint": "mean lipid content", "value": "0.657 OD492"}
{"SMILES": "O=C(N/N=C/c1ccc(C[n+]2ccccc2)cc1)C(=O)N/N=C/c1ccc(C[n+]2ccccc2)cc1", "tested on": "22CTA telomeric G4-DNA antiparallel", "test": "FRET melting", "setting": "1 µM, K10 buffer, DNA 0.2 µM", "endpoint": "ΔTm", "value": "7 ± 3.7 °C"}
{"SMILES": "CN1CCCNC(=O)c2cccc(c2)C(=O)NCCCN(C)CCCNc2cccc3c2C(=O)c2cccc(c2C3=O)NCCC1", "tested on": "SAS", "test": "RNA-Seq, refers to: ASB13 mRNA", "setting": "1 µM, 6 h", "how to read": "baseline: untreated cells", "endpoint": "log2 fold change", "value": 0.876}
{"SMILES": "CCN(CC)CC(=O)Nc1cccc(-n2cc(-c3ccc4ccc(-c5cn(-c6cccc(NC(=O)CN(CC)CC)c6)nn5)cc4c3)nn2)c1", "tested on": "RCC4", "test": "PCR array, refers to: HGF", "setting": "5 x IC50, 2 h, normoxia", "how to read": "baseline: untreated", "endpoint": "fold regulation", "value": 1.02}
{"SMILES": "N#C[C@@H]1CCCN1C(=O)CNC(=O)c1ccnc2ccc(OCCCN3CCN(C(=O)CCc4ccc5c(c4)CN4CCN(Cc6cc(CCC(=O)O)ccc6O)CC(=O)[O][Al-]([18F])([O]C(=O)C4)[O]5)CC3)cc12 (some centres unmarked)", "tested on": "HT1080 cells expressing human FAP", "setting": "15 min, 37 °C", "endpoint": "internalized fraction", "value": "66.9 ± 0.7%"}
{"SMILES": "CNS(=O)(=O)Nc1nccc(Cc2c(C)c3ccc(Oc4ncccc4F)cc3oc2=O)c1F", "tested on": "OVCAR-8", "test": "cell viability", "setting": "7 days", "endpoint": "IC50", "value": "0.101 µM"}
{"SMILES": "Nc1c(NCO)c2ccccc2oc1=O", "tested on": "COS-7 (untransfected)", "setting": "500 µM, unit not given", "how to read": "baseline: 3 µM ionomycin", "endpoint": "calcium mobilisation signal", "value": "0.05 ± 0.95"}
{"SMILES": "C[C@@H]1CC[C@@H]([C@](O)(CNCc2ccc(F)cc2)COCc2ccccc2)[C@H](OCc2ccccc2)C1", "tested on": "A2780", "test": "cell growth or viability, MTT", "setting": "30 µM, 72 h", "endpoint": "inhibition", "value": "99.9%"}
{"SMILES": "Cc1ncsc1-c1ccc(C(C)NC(=O)C2CC(O)CN2C(=O)C(NC(=O)CCCCCCCCCCN2CCCC(Nc3ncc(Cl)c(Nc4ccccc4S(=O)(=O)C(C)C)n3)C2)C(C)(C)C)cc1 (centres unmarked)", "tested on": "22Rv1", "test": "RNA-seq, refers to: NCK1-DT", "setting": "concentration not given", "how to read": "baseline: DMSO", "endpoint": "log2 fold change", "value": -1.92}
{"note": "For quick reference, copied from above:"}
{"SMILES": "N#Cc1cccc(/C=C/C(=O)c2ccc(O)cc2)c1", "tested on": "U-87 MG", "test": "refers to: SIVA1", "setting": "concentration not given", "how to read": "baseline: untreated", "endpoint": "fold change", "value": 0.038}
{"SMILES": "Cn1ncc2cc(-c3cncc(Cl)c3N3CCC4(CCNC4=O)CC3)ccc21", "tested on": "LS174T", "test": "gene expression, microarray, refers to: DUSP6 mRNA", "setting": "concentration not given, 4 h", "how to read": "baseline: untreated cells", "endpoint": "log2 fold change", "value": -1.12}
